Measurements of several laboratories.
± marks the error that the study gave. Values after ≈ are worked out from the molar mass of the structure shown.

Structure (SMILES) | assay | system | conditions | how to read | endpoint | value
C=C/C=C/C[C@@H](C)[C@@H](O)[C@H]1C(=O)N[C@@H](CC)C(=O)N(C)CC(=O)N(C)[C@@H](CC(C)C)C(=O)N[C@@H](C(C)C)C(=O)N(C)[C@@H](CC(C)C)C(=O)N[C@@H](C)C(=O)N[C@H](C)C(=O)N(C)[C@@H](CC(C)C)C(=O)N(C)[C@@H](CC(C)C)C(=O)N(C)[C@@H](C(C)C)C(=O)N1C |  | Wistar Kyoto rat, male, plasma | ip, 0.5 mg/kg/day, day 28, at sacrifice |  | plasma urea level | 5.2 ± 0.3 mmol/L
N#[11C]c1ccc(-c2csc(NN=C3CCCC3)n2)cc1 |  | C57BL/6 mice, male, kidney | intravenous, 3 MBq, 60 min |  | radioactivity uptake | 4.08 ± 0.09 %ID/g
CC(C)[C@@H]1NC(=O)CNC(=O)[C@H](CC(N)=O)NC(=O)[C@H](CCCNC(=N)N)NC(=O)[C@H](Cc2ccc(O)cc2)NC(=O)[C@H](C(C)C)NC(=O)[C@@H](NC(=O)[C@@H](NC(=O)[C@H](CC(N)=O)NC(=O)[C@H](Cc2c[nH]c3ccccc23)NC(=O)[C@H](C)NC(=O)[C@H](Cc2ccccc2)NC(=O)CNC(=O)[C@H](CCCCN)NC(=O)[C@H](Cc2ccccc2)NC(=O)[C@H](Cc2ccccc2)NC(=O)[C@H](CCCCN)NC(=O)OCC2c3ccccc3-c3ccccc32)C(C)C)CSSC[C@@H](C(=O)N[C@@H](Cc2c[nH]cn2)C(=O)N[C@@H](CCCNC(=N)N)C(=O)N[C@@H](CCCNC(=N)N)C(=O)N[C@@H](C)C(=O)N[C@@H](CC(N)=O)C(N)=O)NC(=O)[C@H](C(C)C)NC(=O)[C@H](CCCNC(=N)N)NC1=O |  | ICR mouse, serum | ip, 10 mg/kg, 3 d dosing, blood day 5 |  | blood urea nitrogen | 10.5 ± 0.47 mmol/L
CN[C@H](CC(C)C)C(=O)N[C@H]1C(=O)N[C@@H](CC(N)=O)C(=O)N[C@H]2C(=N)N[C@H]3C(=O)N[C@H](C(=O)N[C@H](C(=O)NCCCNC(=N)N)c4cc(O)cc(O)c4-c4cc3ccc4O)[C@H](O)c3ccc(c(Cl)c3)Oc3cc2cc(c3O[C@@H]2O[C@H](CO)[C@@H](O)[C@H](O)[C@H]2O[C@H]2C[C@](C)(NCc3ccc(-c4ccc(Cl)cc4)cc3)[C@H](O)[C@H](C)O2)Oc2ccc(cc2Cl)[C@H]1O |  | mouse | intravenous, 10 mg/kg |  | volume of distribution | 0.26 L/kg
Cc1ccccc1-c1ccc(-c2nc(-c3ccc(CN(C)CCCC(=O)O)c([18F])c3)no2)cc1C(F)(F)F |  | rat, brain | 30 min |  | tracer uptake | 0.37 %ID/g
CCCCCCCCCCCCCC(=O)N[C@@H](CCCNC(=N)N)C(=O)N[C@@H](Cc1c[nH]c2ccccc12)C(=O)N[C@@H](CCCCN)C(=O)N[C@H](C(=O)N[C@@H](Cc1ccccc1)C(=O)N[C@@H](CCCCN)C(=O)N[C@@H](CCCCN)C(=O)N[C@H](C(=O)N[C@@H](CCC(=O)O)C(=O)N[C@@H](CCCCN)C(=O)N[C@H](C(=O)NCC(=O)N[C@@H](CCC(N)=O)C(=O)N[C@@H](CC(N)=O)C(=O)N[C@H](C(=O)N[C@@H](CCCNC(=N)N)C(=O)N[C@@H](CC(=O)O)C(=O)NCC(=O)N[C@H](C(=O)N[C@H](C(=O)N[C@@H](CCCCN)C(=O)N[C@@H](C)C(=O)NCC(=O)N1CCC[C@H]1C(=O)N[C@@H](C)C(=O)N[C@H](C(=O)N[C@@H](C)C(=O)N[C@H](C(=O)N[C@H](C(=O)NCC(=O)N[C@@H](CCC(N)=O)C(=O)N[C@@H](C)C(=O)N[C@@H](C)C(=O)N[C@H](C(=O)N[C@H](C(N)=O)[C@@H](C)CC)[C@@H](C)O)C(C)C)C(C)C)C(C)C)C(C)C)[C@@H](C)CC)[C@@H](C)CC)C(C)C)[C@@H](C)CC)[C@@H](C)CC |  | mouse erythrocytes | 32 µM, 1 h, 37 °C |  | hemolysis | ~20%
C=Cc1c(C)c2cc3nc(c(CC(=O)[O-])c4[n-]c(cc5nc(cc1[n-]2)C(C)=C5CC)c(C)c4C(=O)[O-])C(CCC(=O)[O-])C3C.[Cu+2].[Na+].[Na+].[Na+] (stereo not drawn) |  | Wistar rat, male | oral, 500 mg/kg daily, 28 days |  | serum AST | 107 ± 12 U/L
O=C1NC2(CC2)COc2ncc(F)cc2[C@H]2COCCN2c2ccn3ncc1c3n2 |  | Sprague-Dawley rat, male, testes | oral, 2.5 mg/kg/day, 4 weeks |  | organ weight | 3.28 ± 0.332 g
CCCC[C@H]1C(=O)N(C)[C@@H](CCCC)C(=O)N[C@@H](CCCNC(=O)CN2CCN(CC(=O)O)CCN(CC(=O)O)CCN(CC(=O)O)CC2)C(=O)N[C@H](C(=O)NCC(N)=O)CSCC(=O)N[C@@H](Cc2ccc(O)cc2)C(=O)N(C)[C@@H](C)C(=O)N[C@@H](CC(N)=O)C(=O)N2CCC[C@H]2C(=O)N[C@@H](Cc2c[nH]cn2)C(=O)N[C@@H](CC(C)C)C(=O)N(C)CC(=O)N[C@@H](Cc2c[nH]c3ccccc23)C(=O)N[C@@H](CO)C(=O)N[C@@H](Cc2c[nH]c3ccccc23)C(=O)N1C [gallium-68 labelled] | radio-HPLC | fetal bovine serum | 60 min, 37 °C |  | radiochemical purity | 98.2%
CN1Cc2cc(Cl)ccc2-n2c(nnc2C2CCN(c3cccc([18F])n3)CC2)C1 |  | C57BL/6 mouse male, small intestine | intravenous, 3.7 MBq, 30 min |  | tissue uptake | 34.1 ± 12.7 %ID/g
O=P1(O)CC=Cc2ccccc2O1 | HPLC-UV | 50 mM PBS | 16 h, pH 7.4, 25 °C, upper limit 2.5 mg/mL |  | kinetic solubility | 2300 µg/mL (≈ 11.7 mM)
CC(=O)NCCCC[C@@H]1NC(=O)[C@H](Cc2c[nH]c3c(C)cccc23)NC(=O)[C@H]([C@@H](C)O)NC(=O)[C@H](CC(N)=O)NC(=O)[C@@H](NC(C)=O)C(C)(C)SSC(C)(C)[C@@H](C(=O)N[C@@H](Cc2ccc(OCCN)cc2)C(=O)N[C@@H](Cc2ccc3ccccc3c2)C(=O)NC2(C(=O)N[C@@H](CCC(=O)O)C(=O)N[C@@H](CC(N)=O)C(=O)N[C@@H](Cc3cccnc3)C(=O)N(C)CC(N)=O)CCOCC2)NC1=O |  | cynomolgus monkey, skin | intravenous, 1 mg/kg | reference: plasma concentration | tissue concentration | 68%

A few entries again:
Structure (SMILES) | assay | system | conditions | how to read | endpoint | value
CC(C)[C@@H]1NC(=O)CNC(=O)[C@H](CC(N)=O)NC(=O)[C@H](CCCNC(=N)N)NC(=O)[C@H](Cc2ccc(O)cc2)NC(=O)[C@H](C(C)C)NC(=O)[C@@H](NC(=O)[C@@H](NC(=O)[C@H](CC(N)=O)NC(=O)[C@H](Cc2c[nH]c3ccccc23)NC(=O)[C@H](C)NC(=O)[C@H](Cc2ccccc2)NC(=O)CNC(=O)[C@H](CCCCN)NC(=O)[C@H](Cc2ccccc2)NC(=O)[C@H](Cc2ccccc2)NC(=O)[C@H](CCCCN)NC(=O)OCC2c3ccccc3-c3ccccc32)C(C)C)CSSC[C@@H](C(=O)N[C@@H](Cc2c[nH]cn2)C(=O)N[C@@H](CCCNC(=N)N)C(=O)N[C@@H](CCCNC(=N)N)C(=O)N[C@@H](C)C(=O)N[C@@H](CC(N)=O)C(N)=O)NC(=O)[C@H](C(C)C)NC(=O)[C@H](CCCNC(=N)N)NC1=O |  | ICR mouse, serum | ip, 10 mg/kg, 3 d dosing, blood day 5 |  | blood urea nitrogen | 10.5 ± 0.47 mmol/L
